Measured values pooled from the literature.
Lines come from different studies, so protocols differ. “And” joins repeats or separate records; there may be more than shown. ± gives the spread as reported.

Structure (SMILES) | test | test system | setting | scale | measurement | result
N#[11C]c1ccc(-c2csc(NN=C3CCCC3)n2)cc1 |  | C57BL/6 mouse, male | intravenous, 3 MBq, 5 min |  | uptake in small intestine with contents | 24.2 ± 3.83 %ID/g
CC[C@H](C)[C@H](NC(=O)[C@H](CCCCN)NC(=O)CNC(=O)[C@H](CC(C)C)NC(=O)[C@H](Cc1ccccc1)NC(=O)[C@H](CCCCN)NC(=O)[C@H](CO)NC(=O)[C@H](Cc1ccccc1)NC(=O)[C@H](Cc1c[nH]c2ccccc12)NC(=O)[C@H](CCC(N)=O)NC(=O)[C@@H](NC(=O)[C@H](Cc1ccccc1)NC(=O)CCCCCNC(=O)CN1CCN(CC(=O)O)CCN(CC(=O)O)CCN(CC(=O)O)CC1)C(C)C)C(=O)N[C@@H](CCC(=O)O)C(=O)N1CCC[C@H]1C(=O)N[C@@H](CC(=O)O)C(=O)N[C@H](C(=O)N[C@@H](CO)C(=O)N[C@@H](CCC(N)=O)C(=O)N[C@H](C(=O)N[C@@H](CCC(N)=O)C(=O)N[C@@H](CC(=O)O)C(=O)N1CCC[C@H]1C(=O)N[C@@H](CC(N)=O)C(=O)N[C@@H](CC(=O)O)C(=O)N[C@@H](CCC(N)=O)C(=O)N[C@@H](Cc1ccc(O)cc1)C(=O)N[C@@H](CCC(=O)O)C(=O)N1CCC[C@H]1C(=O)N[C@@H](Cc1ccccc1)C(=O)O)C(C)C)C(C)C [copper-64 labelled] |  | GZMB-/- mice, CT26 tumour-bearing, brain | 2 h, vehicle-treated |  | tissue uptake | 0.1 ± 0.01 %ID/g
CCCCCCCCCCCCCCCC(=O)N[C@@H](CCC(=O)NCCOCCOCCC(=O)NCCOCCOCCC(=O)NCCCC[C@H](NC(=O)[C@H](CC(=O)O)NC(=O)[C@H](CC(C)C)NC(=O)[C@H](Cc1ccc(O)cc1)NC(=O)[C@H](CCCCN)NC(=O)[C@H](CO)NC(=O)[C@H](Cc1ccc(O)cc1)NC(=O)[C@H](CC(=O)O)NC(=O)[C@H](CO)NC(=O)[C@@H](NC(=O)[C@H](Cc1ccccc1)NC(=O)[C@@H](NC(=O)CNC(=O)[C@H](CCC(N)=O)NC(=O)[C@@H](CO)NC(=O)[C@@H](N)Cc1c[nH]cn1)[C@@H](C)O)[C@@H](C)O)C(=O)N[C@@H](CCCNC(=N)N)C(=O)N[C@@H](CCCNC(=N)N)C(=O)N[C@@H](C)C(=O)N[C@@H](CCC(N)=O)C(=O)N[C@@H](CC(=O)O)C(=O)N[C@@H](Cc1ccccc1)C(=O)N[C@H](C(=O)N[C@@H](CCC(N)=O)C(=O)N[C@@H](Cc1c[nH]c2ccccc12)C(=O)N[C@@H](CC(C)C)C(=O)N[C@@H](CC(C)C)C(=O)N[C@@H](CC(N)=O)C(=O)N[C@H](C(=O)NCC(=O)NCC(=O)N1CCC[C@H]1C(=O)N[C@@H](CO)C(=O)N[C@@H](CO)C(=O)NCC(=O)N[C@@H](C)C(=O)N1CCC[C@H]1C(=O)N1CCC[C@H]1C(=O)N1CCC[C@H]1C(=O)N[C@@H](CO)C(N)=O)[C@@H](C)O)C(C)C)C(=O)O | item: AST | rhesus monkey, male | subcutaneous, 300 µg/kg once daily, 28 days |  | serum enzyme activity | 47.9 ± 15.5 U/L
Cc1ccccc1-c1ccc(-c2nc(-c3ccc(CN(C)CCCC(=O)O)c([18F])c3)no2)cc1C(F)(F)F |  | rat, heart | 2 h |  | tracer uptake | 0.31 %ID/g
N=C(N)NCCC[C@H](NC(=O)[C@H](CCCNC(=N)N)NC(=O)[C@H](CCCNC(=N)N)NC(=O)[C@H](CCC(N)=O)NC(=O)[C@H](CCCNC(=N)N)NC(=O)[C@H](CCCNC(=N)N)NC(=O)[C@H](CCCCN)NC(=O)[C@H](CCCCN)NC(=O)[C@H](CCCNC(=N)N)NC(=O)CNC(=O)[C@H](Cc1ccc(O)cc1)NC(=O)[C@H](Cc1ccccc1)NC(=O)[C@H](Cc1ccccc1)NC(=O)[C@H](Cc1ccccc1)NC(=O)OCC1c2ccccc2-c2ccccc21)C(=O)O |  | C57BL/6 mice | intraperitoneal, 10 mg/kg, 2 h | direction not given | health score | 5
C=C/C=C/C[C@@H](C)[C@@H](O)[C@H]1C(=O)N[C@@H](CC)C(=O)N(C)CC(=O)N(C)[C@@H](CC(C)C)C(=O)N[C@@H](C(C)C)C(=O)N(C)[C@@H](CC(C)C)C(=O)N[C@@H](C)C(=O)N[C@H](C)C(=O)N(C)[C@@H](CC(C)C)C(=O)N(C)[C@@H](CC(C)C)C(=O)N(C)[C@@H](C(C)C)C(=O)N1C |  | Wistar Kyoto rat, male, plasma | ip, 0.5 mg/kg/day, day 28, at sacrifice |  | plasma Na+ level | 143 ± 1 mmol/L
CC[C@H](C)[C@H](NC(=O)[C@H](CCCN)NC(=O)[C@H](CCCNC(=N)N)NC(=O)[C@@H]1CCCN1C(=O)[C@@H]1CCCN1C(=O)[C@H](CCCNC(=N)N)NC(=O)[C@@H]1CCCN1C(=O)[C@H](CCCNC(=N)N)NC(=O)[C@@H]1CCCN1C(=O)[C@H](CC(C)C)NC(=O)[C@H](Cc1ccc(O)cc1)NC(=O)[C@@H]1CCCN1C(=O)[C@@H]1CCCN1C(=O)[C@H](CCCCN)NC(=O)[C@H](CC(=O)O)NC(=O)[C@@H](N)C(C)C)C(=O)N[C@@H](Cc1ccc(O)cc1)C(=O)N[C@@H](CC(N)=O)C(=O)N[C@@H](CCCN)C(N)=O | competitive ELISA | mouse CD-1, female, plasma | subcutaneous, 4.34 µmol/kg |  | AUMC(0-inf) | 4.8 µg·h²/mL
CSCC[C@H](N)C(=O)N[C@@H](C)C(=O)N[C@@H](CCCNC(=N)N)C(=O)N[C@@H](CCCNC(=N)N)C(=O)N[C@@H](CC(=O)O)C(=O)N[C@@H](CCCCN)C(=O)N[C@H](C(=O)N[C@@H](CC(=O)O)C(=O)N[C@@H](Cc1ccccc1)C(=O)N[C@@H](C)C(=O)N[C@@H](CCCNC(=N)N)C(=O)N[C@@H](CCCNC(=N)N)C(=O)N[C@@H](CCCNC(=N)N)C(=O)N[C@@H](CCCNC(=N)N)C(=O)NCCCCCC(=O)NCCCCC(NC(=O)CCCCCNC(=O)[C@H](CCCNC(=N)N)NC(=O)[C@H](CCCNC(=N)N)NC(=O)[C@H](CCCNC(=N)N)NC(=O)[C@H](CCCNC(=N)N)NC(=O)[C@H](C)NC(=O)[C@H](Cc1ccccc1)NC(=O)[C@H](CC(=O)O)NC(=O)[C@@H](NC(=O)[C@H](CCCCN)NC(=O)[C@H](CC(=O)O)NC(=O)[C@H](CCCNC(=N)N)NC(=O)[C@H](CCCNC(=N)N)NC(=O)[C@H](C)NC(=O)[C@@H](N)CCSC)[C@@H](C)O)C(=O)NCCCCC(NC(=O)C(CCCCNC(=O)CCCCCNC(=O)[C@H](CCCNC(=N)N)NC(=O)[C@H](CCCNC(=N)N)NC(=O)[C@H](CCCNC(=N)N)NC(=O)[C@H](CCCNC(=N)N)NC(=O)[C@H](C)NC(=O)[C@H](Cc1ccccc1)NC(=O)[C@H](CC(=O)O)NC(=O)[C@@H](NC(=O)[C@H](CCCCN)NC(=O)[C@H](CC(=O)O)NC(=O)[C@H](CCCNC(=N)N)NC(=O)[C@H](CCCNC(=N)N)NC(=O)[C@H](C)NC(=O)[C@@H](N)CCSC)[C@@H](C)O)NC(=O)CCCCCNC(=O)[C@H](CCCNC(=N)N)NC(=O)[C@H](CCCNC(=N)N)NC(=O)[C@H](CCCNC(=N)N)NC(=O)[C@H](CCCNC(=N)N)NC(=O)[C@H](C)NC(=O)[C@H](Cc1ccccc1)NC(=O)[C@H](CC(=O)O)NC(=O)[C@@H](NC(=O)[C@H](CCCCN)NC(=O)[C@H](CC(=O)O)NC(=O)[C@H](CCCNC(=N)N)NC(=O)[C@H](CCCNC(=N)N)NC(=O)[C@H](C)NC(=O)[C@@H](N)CCSC)[C@@H](C)O)C(N)=O)[C@@H](C)O (stereo partly shown) |  | C57BL/6 mouse female, small intestine | 3 h | relative to: total dose | tissue distribution | 11.5%
C(#Cc1cncc(OC[C@@H]2CCN2)c1)c1ccccc1 |  | male Sprague-Dawley rat, plasma | oral, 75 mg/kg, 1 h |  | concentration | 390 ng/mL
CC(C)=CCC/C(C)=C\CCn1cc(CC(P(=O)(O)O)P(=O)(O)O)nn1 | qRT-PCR, item: Slco2a1 and Slc10a1 | CD-1 mice, liver | intravenous, 0.3 mg/kg | relative to: control | mRNA level | increased
O=C1NC2(CC2)COc2ncc(F)cc2[C@H]2COCCN2c2ccn3ncc1c3n2 |  | Sprague-Dawley rat, female, blood | oral, 2.5 mg/kg/day, 4 weeks, end of treatment, subacute toxicity |  | mean corpuscular haemoglobin | 19.7 ± 0.8 pg
C/C(=N\OCCCN1CCCCC1)c1ccc(C(F)(F)F)cc1 |  | mouse, plasma | oral, 100 mg/kg twice daily, day 7 |  | AUC(0-t) | 6570 ± 3200 ng·h/mL
CSCC[C@H](NC(=O)CNC(=O)[C@H](CCCCN)NC(=O)[C@H](CC(C)C)NC(=O)[C@@H]1CCCN1C(=O)[C@H](CO)NC(=O)[C@H](Cc1c[nH]cn1)NC(=O)[C@H](Cc1c[nH]c2ccccc12)NC(=O)[C@H](CCCNC(=N)N)NC(=O)[C@H](CC(C)C)NC(=O)[C@H](CCCNC(=N)N)NC(=O)[C@H](Cc1c[nH]c2ccccc12)NC(=O)[C@H](CS)NC(=O)CCCCCNC(=O)CN1CCN(CC(=O)O)CCN(CC(=O)O)CCN(CC(=O)O)CC1)C(=O)O [copper-64 labelled] | PET imaging | BALB/c nude mice, tumor | intravenous, dose not given, 55 h, Huh-7 tumour-bearing |  | tissue uptake | 4.05 ± 0.37 %ID/g
CCc1nn(C)c2nc(-c3ccc(C(=O)O)cc3)nc(NCc3ccccc3)c12 |  | NSG mice | dose not given, day 5 of treatment |  | body weight | 23.1 g and 23.3 g and 22.3 g and 23.5 g
CN1Cc2cc(Cl)ccc2-n2c(nnc2C2CCN(c3cccc(F)n3)CC2)C1 |  | Sprague-Dawley rats male, striatum | intravenous, 0.03 mg/kg, 60 min |  | concentration | 1.19 ± 0.53 ng/mL
COc1ccc(CNc2ccc3c(c2)S(=O)(=O)C=C3)cc1 |  | male C57BL/6 mice, blood | intraperitoneal, 10 mg/kg, day 8, group average |  | plateletcrit | 5.63 mL/L
C#Cc1c(F)ccc2cc(O)cc(-c3ncc4c(N5CC6CCC(C5)N6C(=O)OC(C)OC(=O)CC5CCCC5)nc(OC[C@@]56CCCN5C[C@H](F)C6)nc4c3F)c12 (stereo partly shown) | item: prodrug | mouse whole blood | 1 µM |  | t1/2 | 7.45 min
CC(C)C[C@@H](NC(=O)[C@@H](CCCNC(=N)N)NC(=O)[C@@H](Cc1c[nH]cn1)NC(=O)[C@@H](Cc1c[nH]c2ccccc12)NC(=O)[C@@H](Cc1c[nH]cn1)NC(=O)[C@@H](Cc1ccccc1)NC(=O)[C@H](NC(=O)[C@@H](Cc1ccc(O)cc1)NC(=O)CNC(=O)CNC(=O)CCOCCOCCOCCNC(=O)CN1CCN(CC(=O)O)CCN(CC(=O)O)CC1)[C@H](C)O)C(=O)N[C@H](CC(N)=O)C(=O)N1CCC[C@@H]1C(=O)O [gallium-68 labelled] | OLINDA/EXM | adult female human, stomach wall | extrapolated from C57BL/6 mice |  | organ absorbed dose | 0.0125 ± 0.0002 mSv/MBq
COCCCCNC(=O)CC(Cc1ccc(F)cc1)NC(=O)C(Cc1ccc(Cl)cc1Cl)NC(=O)C(N)Cc1ccccc1C#N (stereo not shown) | metabolic stability | CD-1 mouse, liver microsomes | 1 µM |  | microsomal CLint | 50 µL/min/mg
